Measurements from different studies.
Compare with care: the assays were run in different laboratories. ± gives the spread as reported.
Squalene synthase ERG9: Squalene synthase ERG9 (Saccharomyces cerevisiae, UniProt P29704)
KCNJ13 M125R: Inward rectifier potassium channel 13 (KCNJ13, Homo sapiens, UniProt O60928, M125R)
Grin1/Grin2a/Grin2b MK-801 channel binding site: Grin1/Grin2a/Grin2b, MK-801 channel binding site (Rattus norvegicus, UniProt P35439+Q00959+Q00960)
hdac6 CD2 catalytic domain: Histone deacetylase 6, CD2 catalytic domain (hdac6, Danio rerio, UniProt F8W4B7)

Amino acid sequences for entries named in this document (tags omitted). Residues count along the entry.
UniProt O60928, whole entry M125R: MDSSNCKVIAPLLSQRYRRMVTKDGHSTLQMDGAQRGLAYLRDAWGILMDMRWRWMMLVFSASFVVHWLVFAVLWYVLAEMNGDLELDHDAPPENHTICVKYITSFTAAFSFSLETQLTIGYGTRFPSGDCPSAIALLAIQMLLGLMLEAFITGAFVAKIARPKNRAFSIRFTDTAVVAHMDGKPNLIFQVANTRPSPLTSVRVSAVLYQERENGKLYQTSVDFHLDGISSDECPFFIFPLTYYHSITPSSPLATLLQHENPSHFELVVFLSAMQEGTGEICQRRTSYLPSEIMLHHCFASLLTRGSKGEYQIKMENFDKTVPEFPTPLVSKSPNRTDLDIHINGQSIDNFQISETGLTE
UniProt P09884, whole entry: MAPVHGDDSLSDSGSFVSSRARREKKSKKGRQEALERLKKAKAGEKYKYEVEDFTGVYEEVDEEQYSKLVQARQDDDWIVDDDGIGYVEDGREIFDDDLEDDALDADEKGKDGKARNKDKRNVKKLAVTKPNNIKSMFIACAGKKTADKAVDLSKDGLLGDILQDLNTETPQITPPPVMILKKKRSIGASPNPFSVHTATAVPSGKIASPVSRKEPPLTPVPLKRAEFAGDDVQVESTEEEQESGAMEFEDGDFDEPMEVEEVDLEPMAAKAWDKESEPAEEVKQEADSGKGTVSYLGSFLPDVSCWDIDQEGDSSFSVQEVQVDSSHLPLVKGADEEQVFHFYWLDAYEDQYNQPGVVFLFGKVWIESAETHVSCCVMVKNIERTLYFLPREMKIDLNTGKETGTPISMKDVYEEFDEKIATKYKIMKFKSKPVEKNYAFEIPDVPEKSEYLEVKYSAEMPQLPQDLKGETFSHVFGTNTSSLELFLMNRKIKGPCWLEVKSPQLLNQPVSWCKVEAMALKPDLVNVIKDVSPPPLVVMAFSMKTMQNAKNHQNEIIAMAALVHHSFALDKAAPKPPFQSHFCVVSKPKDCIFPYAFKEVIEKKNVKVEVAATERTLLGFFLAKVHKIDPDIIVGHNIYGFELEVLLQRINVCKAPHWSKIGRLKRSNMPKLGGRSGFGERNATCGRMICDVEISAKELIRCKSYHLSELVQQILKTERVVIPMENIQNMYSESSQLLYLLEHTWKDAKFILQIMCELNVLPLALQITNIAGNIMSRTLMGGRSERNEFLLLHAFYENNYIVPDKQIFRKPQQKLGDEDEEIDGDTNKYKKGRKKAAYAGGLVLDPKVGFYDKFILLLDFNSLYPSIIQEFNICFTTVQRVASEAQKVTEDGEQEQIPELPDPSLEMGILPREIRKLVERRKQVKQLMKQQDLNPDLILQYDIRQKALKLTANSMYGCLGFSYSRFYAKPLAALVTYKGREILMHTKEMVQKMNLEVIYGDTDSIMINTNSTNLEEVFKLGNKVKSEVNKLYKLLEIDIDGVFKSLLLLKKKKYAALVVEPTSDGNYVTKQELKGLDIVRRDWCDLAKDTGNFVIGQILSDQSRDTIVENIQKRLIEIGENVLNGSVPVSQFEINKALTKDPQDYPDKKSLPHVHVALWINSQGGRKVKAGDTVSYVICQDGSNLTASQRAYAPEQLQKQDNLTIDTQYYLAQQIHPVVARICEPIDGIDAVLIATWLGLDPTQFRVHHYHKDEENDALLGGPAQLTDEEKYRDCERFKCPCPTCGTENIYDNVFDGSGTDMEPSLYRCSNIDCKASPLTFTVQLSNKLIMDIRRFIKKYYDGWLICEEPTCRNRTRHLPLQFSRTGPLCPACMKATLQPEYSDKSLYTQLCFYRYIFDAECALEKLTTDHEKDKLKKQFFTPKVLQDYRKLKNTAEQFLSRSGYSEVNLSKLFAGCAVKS
UniProt P81908, whole entry: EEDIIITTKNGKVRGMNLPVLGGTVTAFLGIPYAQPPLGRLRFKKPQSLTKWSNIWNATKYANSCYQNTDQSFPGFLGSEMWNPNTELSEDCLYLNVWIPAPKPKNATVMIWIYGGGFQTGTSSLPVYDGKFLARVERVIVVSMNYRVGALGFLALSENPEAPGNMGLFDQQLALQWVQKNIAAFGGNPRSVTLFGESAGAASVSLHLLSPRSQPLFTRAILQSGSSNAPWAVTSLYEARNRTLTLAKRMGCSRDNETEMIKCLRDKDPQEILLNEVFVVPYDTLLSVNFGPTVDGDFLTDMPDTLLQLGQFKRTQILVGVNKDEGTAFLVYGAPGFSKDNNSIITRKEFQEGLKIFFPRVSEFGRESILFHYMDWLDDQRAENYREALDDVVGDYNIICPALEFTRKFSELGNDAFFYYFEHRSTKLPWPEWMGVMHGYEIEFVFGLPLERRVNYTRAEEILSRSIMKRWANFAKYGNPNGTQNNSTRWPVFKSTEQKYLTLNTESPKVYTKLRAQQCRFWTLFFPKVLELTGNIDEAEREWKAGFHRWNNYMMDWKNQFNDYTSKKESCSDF
UniProt O15245, whole entry G465R: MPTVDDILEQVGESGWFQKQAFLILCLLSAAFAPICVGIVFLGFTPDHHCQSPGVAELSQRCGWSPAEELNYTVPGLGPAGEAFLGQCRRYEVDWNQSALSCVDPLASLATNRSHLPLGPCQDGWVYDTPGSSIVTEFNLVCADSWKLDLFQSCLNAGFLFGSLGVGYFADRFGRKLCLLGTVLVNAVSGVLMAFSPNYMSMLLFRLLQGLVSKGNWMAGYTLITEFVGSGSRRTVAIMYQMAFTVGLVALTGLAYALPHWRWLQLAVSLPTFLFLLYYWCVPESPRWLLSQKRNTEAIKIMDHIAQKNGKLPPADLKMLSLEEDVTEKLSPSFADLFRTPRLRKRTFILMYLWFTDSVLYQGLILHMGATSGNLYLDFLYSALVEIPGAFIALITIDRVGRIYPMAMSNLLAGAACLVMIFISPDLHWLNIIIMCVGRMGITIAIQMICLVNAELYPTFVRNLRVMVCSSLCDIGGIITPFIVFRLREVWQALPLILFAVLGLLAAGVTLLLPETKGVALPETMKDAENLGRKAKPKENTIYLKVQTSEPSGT
UniProt Q38C42, 1-471: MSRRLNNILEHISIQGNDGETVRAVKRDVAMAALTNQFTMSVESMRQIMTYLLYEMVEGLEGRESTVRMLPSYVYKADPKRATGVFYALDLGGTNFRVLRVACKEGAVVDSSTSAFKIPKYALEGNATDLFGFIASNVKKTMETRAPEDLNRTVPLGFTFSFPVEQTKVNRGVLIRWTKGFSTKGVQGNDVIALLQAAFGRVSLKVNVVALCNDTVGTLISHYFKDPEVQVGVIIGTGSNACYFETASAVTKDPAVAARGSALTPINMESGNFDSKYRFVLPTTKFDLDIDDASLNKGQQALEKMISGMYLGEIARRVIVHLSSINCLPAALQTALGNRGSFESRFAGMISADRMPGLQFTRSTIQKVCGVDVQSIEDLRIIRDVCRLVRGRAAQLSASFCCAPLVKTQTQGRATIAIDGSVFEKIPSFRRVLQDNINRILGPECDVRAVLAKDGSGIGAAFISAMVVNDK
UniProt P97612, whole entry: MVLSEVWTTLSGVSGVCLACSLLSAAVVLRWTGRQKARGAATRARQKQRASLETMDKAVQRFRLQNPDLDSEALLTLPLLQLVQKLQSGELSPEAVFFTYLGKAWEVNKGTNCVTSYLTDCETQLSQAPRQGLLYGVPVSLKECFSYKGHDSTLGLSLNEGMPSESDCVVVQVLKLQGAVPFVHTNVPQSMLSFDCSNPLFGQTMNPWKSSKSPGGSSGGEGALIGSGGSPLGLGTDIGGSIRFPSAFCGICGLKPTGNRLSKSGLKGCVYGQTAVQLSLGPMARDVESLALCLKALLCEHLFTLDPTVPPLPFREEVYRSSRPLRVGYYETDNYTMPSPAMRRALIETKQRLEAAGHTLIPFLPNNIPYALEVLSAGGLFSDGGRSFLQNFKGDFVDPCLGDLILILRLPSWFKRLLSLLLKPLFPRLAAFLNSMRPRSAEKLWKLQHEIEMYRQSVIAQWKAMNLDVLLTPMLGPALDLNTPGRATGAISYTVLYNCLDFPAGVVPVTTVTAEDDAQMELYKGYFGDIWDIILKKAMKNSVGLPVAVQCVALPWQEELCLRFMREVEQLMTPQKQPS
UniProt C4Z6Z2, 1-611: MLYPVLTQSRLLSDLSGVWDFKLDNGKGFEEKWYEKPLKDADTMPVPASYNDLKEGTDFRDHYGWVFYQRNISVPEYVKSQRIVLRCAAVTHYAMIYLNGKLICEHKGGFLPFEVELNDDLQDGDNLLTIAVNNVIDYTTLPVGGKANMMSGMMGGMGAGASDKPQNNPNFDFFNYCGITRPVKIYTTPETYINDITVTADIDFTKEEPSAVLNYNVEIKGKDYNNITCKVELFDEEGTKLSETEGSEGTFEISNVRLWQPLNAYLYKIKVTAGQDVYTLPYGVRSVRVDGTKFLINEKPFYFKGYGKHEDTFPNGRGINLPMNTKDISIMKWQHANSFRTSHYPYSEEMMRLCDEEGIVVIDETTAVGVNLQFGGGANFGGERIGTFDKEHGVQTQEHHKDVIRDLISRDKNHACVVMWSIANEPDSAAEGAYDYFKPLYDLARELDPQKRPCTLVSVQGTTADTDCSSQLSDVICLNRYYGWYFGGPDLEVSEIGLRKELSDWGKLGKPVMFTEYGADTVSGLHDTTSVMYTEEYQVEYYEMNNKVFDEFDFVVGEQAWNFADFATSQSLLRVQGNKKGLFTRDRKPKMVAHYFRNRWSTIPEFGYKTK
UniProt O75604, whole entry, looked up: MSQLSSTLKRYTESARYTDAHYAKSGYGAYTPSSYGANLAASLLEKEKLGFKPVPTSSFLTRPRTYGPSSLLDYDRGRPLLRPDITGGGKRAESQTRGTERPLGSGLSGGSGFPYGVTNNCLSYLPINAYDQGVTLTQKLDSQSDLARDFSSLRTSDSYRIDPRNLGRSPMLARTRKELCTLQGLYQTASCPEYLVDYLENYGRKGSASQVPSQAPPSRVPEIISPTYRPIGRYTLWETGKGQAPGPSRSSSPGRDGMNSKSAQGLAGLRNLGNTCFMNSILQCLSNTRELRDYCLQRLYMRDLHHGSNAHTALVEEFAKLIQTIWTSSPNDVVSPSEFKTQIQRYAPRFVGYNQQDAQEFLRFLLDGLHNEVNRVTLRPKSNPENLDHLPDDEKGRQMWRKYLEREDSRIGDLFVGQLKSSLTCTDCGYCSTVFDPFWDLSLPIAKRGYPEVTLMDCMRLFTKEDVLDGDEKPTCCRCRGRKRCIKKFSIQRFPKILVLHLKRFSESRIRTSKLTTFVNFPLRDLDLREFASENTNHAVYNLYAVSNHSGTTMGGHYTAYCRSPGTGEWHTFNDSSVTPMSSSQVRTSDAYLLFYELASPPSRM
UniProt Q8E0N2, whole entry: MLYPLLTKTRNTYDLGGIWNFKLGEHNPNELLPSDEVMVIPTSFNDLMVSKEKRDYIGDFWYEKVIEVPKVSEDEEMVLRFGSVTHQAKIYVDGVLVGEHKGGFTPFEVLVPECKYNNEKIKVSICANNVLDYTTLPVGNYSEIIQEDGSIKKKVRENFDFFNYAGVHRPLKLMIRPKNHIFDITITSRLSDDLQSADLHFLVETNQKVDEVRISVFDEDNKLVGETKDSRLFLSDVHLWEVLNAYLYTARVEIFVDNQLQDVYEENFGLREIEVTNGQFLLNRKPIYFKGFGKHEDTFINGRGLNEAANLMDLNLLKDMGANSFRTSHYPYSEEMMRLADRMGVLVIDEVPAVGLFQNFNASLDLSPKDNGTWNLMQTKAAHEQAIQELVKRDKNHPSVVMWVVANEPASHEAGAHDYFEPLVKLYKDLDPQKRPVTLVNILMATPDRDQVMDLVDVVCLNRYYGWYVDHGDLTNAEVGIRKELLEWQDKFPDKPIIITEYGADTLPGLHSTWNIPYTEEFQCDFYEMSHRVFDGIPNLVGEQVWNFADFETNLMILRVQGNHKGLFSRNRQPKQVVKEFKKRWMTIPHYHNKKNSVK
UniProt Q07812, whole entry: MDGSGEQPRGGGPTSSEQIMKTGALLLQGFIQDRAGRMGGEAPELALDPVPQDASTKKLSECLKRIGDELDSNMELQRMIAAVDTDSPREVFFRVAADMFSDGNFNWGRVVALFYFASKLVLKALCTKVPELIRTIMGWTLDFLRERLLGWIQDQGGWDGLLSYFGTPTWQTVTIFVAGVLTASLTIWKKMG
UniProt P25779, whole entry, looked up: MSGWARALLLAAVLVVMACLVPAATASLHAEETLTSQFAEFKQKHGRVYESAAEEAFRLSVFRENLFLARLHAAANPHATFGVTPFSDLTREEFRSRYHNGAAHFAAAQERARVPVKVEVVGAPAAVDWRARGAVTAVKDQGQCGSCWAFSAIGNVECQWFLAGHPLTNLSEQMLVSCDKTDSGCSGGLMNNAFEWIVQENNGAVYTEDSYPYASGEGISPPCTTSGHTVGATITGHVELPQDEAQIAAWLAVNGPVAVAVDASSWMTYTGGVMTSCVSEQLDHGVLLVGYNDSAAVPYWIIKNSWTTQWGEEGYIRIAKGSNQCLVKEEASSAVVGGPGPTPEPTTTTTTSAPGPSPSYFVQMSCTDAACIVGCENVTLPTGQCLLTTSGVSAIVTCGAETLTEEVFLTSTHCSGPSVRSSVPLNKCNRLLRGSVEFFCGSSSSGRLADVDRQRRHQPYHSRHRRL

`COc1ccc(Sc2cc(C(=O)N3Cc4ccccc4C3)ccc2O)cc1OC` gave an IC50 of 530 ± 70 nM (Heat shock protein HSP 90-alpha (HSP90AA1, Homo sapiens, UniProt P07900); binding, fluorescence polarization; added: FITC-geldanamycin tracer).
For `COc1ccc(CN[C@@H]2CO[C@H](C(c3ccccc3)c3ccccc3)C[C@H]2O)cc1`, the inhibition was 17.2% (D(1B) dopamine receptor (DRD5, Homo sapiens, UniProt P21918); radioligand binding; 10 µM, added: [3H]SCH23390).
The IC50 of `COc1cc2nc(-c3ccc(N)cc3)nc(NCCSC[C@H]3O[C@@H](n4cnc5c(N)ncnc54)[C@H](O)[C@@H]3O)c2cc1OC` is reported as 7400 nM (N6-adenosine-methyltransferase catalytic subunit, with METTL14 (METTL3, Homo sapiens, UniProt Q86U44); methyltransferase activity, inhibitor, MTase-Glo; added: RNA substrate).
`Nc1c(S(=O)(=O)Oc2ccccc2NC(=O)Cc2c[nH]c3ccccc23)ccc2ccccc12` gave an IC50 of 1170 ± 130 nM (5'-nucleotidase (NT5E, Homo sapiens, UniProt P21589); malachite green; human).
The IC50 of `O=c1ccn([C@@H]2O[C@H](COP(=O)(O)OP(=O)(O)OP(=O)(O)O)[C@@H](O)[C@]2(F)Br)c(=O)[nH]1` is reported as > 100000 nM (DNA polymerase alpha catalytic subunit (POLA1, Homo sapiens, UniProt P09884); polymerase activity, inhibitor; 37 °C).
With `O=C1NC(=O)C2(Cc3ccccc32)N1` (racemic) the IC50 was 5100 nM (GABA-A receptor alpha-1/beta-3, with gamma-2 subunit (GABRA1/GABRB3, Homo sapiens, UniProt P14867+P28472); alpha1beta3gamma2 receptor).
The IC50 of `C=C(CC/C=C(\C)CCC=C(C)C)CN1[C@@H](COP(=O)(O)OP(=O)(O)O)[C@]1(C)CC/C=C(\C)CCC=C(C)C` (relative stereo) is reported as 4000 ± 400 nM (Squalene synthase ERG9; enzyme activity, inhibitor; pH 7.2, added: 1.5 mM pyrophosphate, 100 µM [3H]FPP).
The IC50 of `O=C(CCCOc1cc(=O)oc2ccccc12)N1CCN(Cc2ccc(F)cc2)CC1` is reported as 1590 ± 20 nM (Cholinesterase (BCHE, Equus caballus, UniProt P81908); enzyme activity, inhibitor, Ellman).
`CCCC(=O)NC1CCCC1` has an IC50 of 52200 nM (HTH-type quorum-sensing regulator RhlR (rhlR, Pseudomonas aeruginosa, UniProt P54292); reporter gene, antagonist; Escherichia coli JLD271 reporter; added: BHL 10 µM).
With `C[C@H](Cc1ccc(O)cc1)NC[C@H](O)c1cc(O)cc(O)c1` the Kd was 13400 nM (Solute carrier family 22 member 1 (SLC22A1, Homo sapiens, UniProt O15245, G465R); binding, frontal displacement chromatography; immobilized SLC22A1 column; added: [3H]MPP+ marker).
The IC50 of `CC(C)(C)c1ccc(C(=O)Nc2cc(Cl)c(Cl)cc2C(=O)O)cc1` is reported as 1360 ± 60 nM (Phosphotransferase (Trypanosoma brucei, UniProt Q38C42); hexokinase activity, inhibitor).
For `C/C=C1\NC(=O)[C@@H](NC(=O)[C@@H](NC(=O)[C@H](C)NC(=O)C/C(C)=C/Cl)[C@@H](C)CC)[C@@H](C)OC(=O)[C@H](C(C)C)NC(=O)[C@H](Cc2ccc(O)cc2)N(C)C(=O)[C@H](Cc2ccccc2)N2C(=O)[C@H](CC[C@H]2OC)NC1=O`, the IC50 was 1.83 nM (Chymotrypsin-like elastase family member 1 (CELA1, Sus scrofa, UniProt P00772); enzyme activity, inhibitor; 30 min, pH 7.4, 22 °C, added: MeOSuc-Ala-Ala-Pro-Val-AMC).
With `O=C(NC1CCCCC1)Oc1ccc(O)c(-c2ccccc2)c1` the IC50 was 30 ± 5.8 nM (Fatty-acid amide hydrolase 1 (Faah, Rattus norvegicus, UniProt P97612); enzyme activity, inhibitor; rat brain membranes; no pre-incubation, added: 10 µM [3H]-anandamide).
For `O=C(NC1CCN(Cc2cc(Cl)c3cccnc3c2O)CC1)c1ccc2ccccc2c1`, the IC50 was 12300 nM (KCNJ13 M125R; ion current, inhibitor, thallium flux; T-REx-HEK293).
For `O=C(O)c1cccc(C#Cc2ccccc2)c1-c1ccc2cc[nH]c2c1`, the IC50 was 927 nM (Epstein-Barr nuclear antigen 1 (Epstein-Barr virus, UniProt P03211); AlphaLISA displacement; added: biotinylated probe VK-2114).
With `Cc1ccc(S(=O)(=O)N(CCOc2ccc(C(=N)N)cc2)CCOc2ccc(C(=N)N)cc2)cc1` the IC50 was 240 ± 80 nM (Grin1/Grin2a/Grin2b MK-801 channel binding site; pH 7).
With `C=C(CC/C=C(\C)CCC=C(C)C)CN1[C@@H](COP(=O)(O)CP(=O)(O)O)[C@]1(C)CC/C=C(\C)CCC=C(C)C` (relative stereo) the IC50 was 17400 ± 5300 nM (Squalene synthase ERG9; enzyme activity, inhibitor; pH 7.2, added: 1.5 mM pyrophosphate, 100 µM [3H]FPP).
For `O=C(NO)c1ccc(F)cc1`, the IC50 was 2100 ± 200 nM (hdac6 CD2 catalytic domain; enzyme activity, inhibitor, fluorogenic; 30 min, added: Ac-RHK(Ac)K(Ac)-AMC).
`NC(=O)c1ccc(-c2ncc(OCC3CCNCC3)nc2-c2ccc(-c3ccoc3)cc2)cc1` has an IC50 of 930 ± 20 nM (Genome polyprotein, NS2B-NS3 protease (pol, Dengue virus type 3, UniProt Q6YMS4); enzyme activity, inhibitor; dengue virus type 3 NS2B-NS3 protease).
The IC50 of `COc1ccc2c(=O)oc3c(OC)cc(CCN4CCNCC4)c4c(=O)oc1c2c34` is reported as 2550 ± 70 nM (Toll-like receptor 2 (TLR2, Homo sapiens, UniProt O60603); reporter gene, antagonist, SEAP reporter; HEK-Blue hTLR2 cells; 24 h, added: Pam3CSK4 100 ng/mL).
With `CC(C)Oc1c(NC(=O)c2ccc(NC(=O)[C@H](CC(N)=O)NC(=O)c3cc(F)c(/N=N/c4c(Cl)cc(C#N)cc4Cl)c(F)c3)cc2)ccc(C(=O)N/N=C/c2c(F)cc(C(=O)O)cc2F)c1O` the IC50 was > 25000 nM (DNA gyrase (gyrA/gyrB, Escherichia coli, UniProt P0AES4+P0AES6); DNA supercoiling, inhibitor; 30 min, 37 °C, after 1 h irradiation at 365 nm).
With `c1cc2c(nc1N1CCOCC1)sc1c(N3CCNCC3)nnnc12` the IC50 was 800 ± 100 nM (Beta-glucuronidase (Lachnospira eligens, UniProt C4Z6Z2); enzyme activity, inhibitor).
`O=C(O)CC1(n2cnnn2)CCCCC1` gave an IC50 of 398000 nM (Metallo-beta-lactamase type 2 (Serratia marcescens, UniProt P52699); 10 min preincubation, added: FC5 fluorogenic substrate).
For `NCCNCCSc1ccccc1`, “lag time (Tlag)” read 0 min (Swiss Albino mouse, female; oral, 400 mg/kg, single dose, non-compartmental).
With `Cc1ccc(CN2C(=O)C(O)=C(C(=O)c3cccs3)C2c2ccc(C)cc2)cc1` (racemic) the IC50 was 5170 nM (Ubiquitin carboxyl-terminal hydrolase 2 (USP2, Homo sapiens, UniProt O75604); enzyme activity, inhibitor, MALDI-TOF; 35 min preincubation, 30 °C).
`O=C(O)C(Cc1nn[nH]n1)[C@@H]1CCN[C@H]1C(=O)O` (relative stereo) gave an IC50 of 93000 nM (native kainate receptor, rat; binding; rat cortical synaptosomes; added: [3H]kainate).
For `Cc1cccc(C(=O)NC2CCN(Cc3cc(Cl)c4cccnc4c3O)CC2)c1`, the IC50 was 4200 nM (KCNJ13 M125R; ion current, inhibitor, thallium flux; T-REx-HEK293).
For `Cc1ccc(S(=O)(=O)N2CCC(C)(C(=O)Nc3ccc4cc(C(=O)O)ccc4c3)CC2)c(C)c1`, the IC50 was 3880 nM (Bifunctional epoxide hydrolase 2 (EPHX2, Homo sapiens, UniProt P34913); pH 7.0, 30 °C, added: CMNPC substrate 5 µM).
For `O=C(NO)c1c(F)cccc1F`, the IC50 was > 20000 nM (hdac6 CD2 catalytic domain; enzyme activity, inhibitor, fluorogenic; 30 min, added: Ac-RHK(Ac)K(Ac)-AMC).
The IC50 of `CNc1ccc2c(n1)sc1c(N3CCNCC3)nc(NC)nc12` is reported as 2400 ± 500 nM (Beta-glucuronidase (Streptococcus agalactiae serotype V, UniProt Q8E0N2); enzyme activity, inhibitor).
The IC50 of `CO[C@H]1[C@H](O[C@H]([C@H]2O[C@@H](n3ccc(=O)[nH]c3=O)[C@H](O)[C@@H]2O)[C@H](NCCCNC(=O)[C@@H](NC(=O)[C@@H](NC(=O)N[C@H](C(=O)O)C(C)C)[C@@H]2CCNC(=N)N2)[C@@H](OC(=O)CCCCCCCCCCCCNC(=N)N)C(C)C)C(N)=O)O[C@H](CN)[C@H]1O` is reported as 120 ± 10 nM (Undecaprenyl-phosphate alpha-N-acetylglucosaminyl 1-phosphate transferase (wecA, Escherichia coli, UniProt P0AC78); enzyme activity, inhibitor).
`N=C(N)c1ccc(OCCOCCOc2ccc(C(=N)N)cc2)cc1` has an IC50 of 3410 ± 520 nM (Grin1/Grin2a/Grin2b MK-801 channel binding site; pH 7).
`CN1CCN(CC(O)CN2c3ccccc3Sc3ccccc32)CC1` (centres unmarked) has an IC50 of 7900 nM (Apoptosis regulator BAX (BAX, Homo sapiens, UniProt Q07812); membrane permeabilization, inhibitor; ANTS/DPX liposomes; 400 nM BAX, added: 30 nM tBID).
For `C=CC(=O)Nc1cc(NC(=O)CCl)cc(C(=O)n2c3ccccc3c3ccccc32)c1`, the IC50 was 2300 nM (ALK tyrosine kinase receptor/Echinoderm microtubule-associated protein-like 4 (Homo sapiens, UniProt Q9HC35+Q9UM73); ALK autophosphorylation, immunoprecipitation, immunoblot; BaF3; 3 h).
`NCc1ccc(-c2ncc(OCC3CCNCC3)nc2-c2ccc(-c3ccoc3)cc2)cc1` gave an IC50 of 220 nM (Genome polyprotein, NS2B-NS3 protease (ZIKV, UniProt A0A024B7W1); enzyme activity, inhibitor; binary NS2B-NS3 protease).
The IC50 of `CC(=O)N[C@H]1[C@H](O[C@@H]2[C@@H](OC[C@H]3O[C@@H](O[C@H]4[C@H](O)[C@H]5N=C(C)S[C@H]5O[C@@H]4CO)[C@@H](O)[C@@H](O[C@H]4O[C@H](CO)[C@@H](O)[C@H](O)[C@@H]4O[C@@H]4O[C@H](CO)[C@@H](O[C@@H]5O[C@H](CO)[C@H](O)[C@H](O)[C@H]5O)[C@H](O)[C@H]4NC(C)=O)[C@@H]3O)O[C@H](CO)[C@@H](O)[C@@H]2O)O[C@H](CO)[C@@H](O[C@@H]2O[C@H](CO)[C@H](O)[C@H](O)[C@H]2O)[C@@H]1O` is reported as 1400 nM (endoS (Streptococcus pyogenes, UniProt Q99Y92); N-glycan hydrolysis, inhibitor, HPAEC-PAD; 10 min, pH 7.4, 30 °C, added: sialylated rituximab substrate).
For `COC(=O)C1=C(C(=O)OC)C2(C(Cc3ccc(F)cc3)Nc3ccccc3)C=CC1O2` (centres unmarked), the IC50 was 1010 nM (SUMO-activating enzyme subunit 2, with SAE1 (Homo sapiens, UniProt Q9UBT2); SUMOylation, inhibitor, AlphaScreen; added: SUMO1-RanGAP1 conjugation).
For `CN(C)c1ccc2c(n1)sc1c(N3CCNCC3)ncnc12`, the IC50 was 23 ± 5 nM (Beta-glucuronidase (uidA, Escherichia coli, UniProt P05804); enzyme activity, inhibitor).
With `O=C(COC(=O)CNC(=O)C1CCCCC1)Nc1cc(C(F)(F)F)ccc1Cl` the IC50 was 670 nM (Cruzipain (Trypanosoma cruzi, UniProt P25779); enzyme activity, inhibitor).
For `O=C(NC1CCN(Cc2cc(Cl)c3cccnc3c2O)CC1)c1cccc(C(F)(F)F)c1`, the IC50 was 6100 nM (KCNJ13 M125R; ion current, inhibitor, thallium flux; T-REx-HEK293).
`Cc1cc(C)n2c1C=C1C=CC(CCC(=O)NCCCCCN(CCc3ccccc3)C(=O)n3cc(-c4ccc(OC(F)(F)F)cc4)nn3)=[N+]1[B-]2(F)F` has an IC50 of 39 nM (Platelet-activating factor acetylhydrolase (Mus musculus, UniProt Q60963); enzyme activity, inhibitor, competitive ABPP with FP-Rh; transfected HEK-293T cell lysate; mouse Lp-PLA2).

A few entries again:
With `c1cc2c(nc1N1CCOCC1)sc1c(N3CCNCC3)nnnc12` the IC50 was 800 ± 100 nM (Beta-glucuronidase (Lachnospira eligens, UniProt C4Z6Z2); enzyme activity, inhibitor).
The IC50 of `CC(=O)N[C@H]1[C@H](O[C@@H]2[C@@H](OC[C@H]3O[C@@H](O[C@H]4[C@H](O)[C@H]5N=C(C)S[C@H]5O[C@@H]4CO)[C@@H](O)[C@@H](O[C@H]4O[C@H](CO)[C@@H](O)[C@H](O)[C@@H]4O[C@@H]4O[C@H](CO)[C@@H](O[C@@H]5O[C@H](CO)[C@H](O)[C@H](O)[C@H]5O)[C@H](O)[C@H]4NC(C)=O)[C@@H]3O)O[C@H](CO)[C@@H](O)[C@@H]2O)O[C@H](CO)[C@@H](O[C@@H]2O[C@H](CO)[C@H](O)[C@H](O)[C@H]2O)[C@@H]1O` is reported as 1400 nM (endoS (Streptococcus pyogenes, UniProt Q99Y92); N-glycan hydrolysis, inhibitor, HPAEC-PAD; 10 min, pH 7.4, 30 °C, added: sialylated rituximab substrate).
